Published values collected from several papers.
Each numbered part is a random draw from the data of one study; scales do not carry over between parts.
Sequence of UniProt Q9HC98 (whole entry, looked up): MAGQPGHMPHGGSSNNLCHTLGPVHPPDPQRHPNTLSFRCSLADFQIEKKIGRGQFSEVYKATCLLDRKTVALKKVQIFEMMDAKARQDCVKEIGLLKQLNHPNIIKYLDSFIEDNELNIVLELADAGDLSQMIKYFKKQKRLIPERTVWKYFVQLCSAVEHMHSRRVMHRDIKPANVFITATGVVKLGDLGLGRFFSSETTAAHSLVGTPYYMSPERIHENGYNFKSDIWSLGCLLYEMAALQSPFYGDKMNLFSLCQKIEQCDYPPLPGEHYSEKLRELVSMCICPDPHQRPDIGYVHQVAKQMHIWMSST
Sequence of UniProt Q9UQ88 (whole entry, looked up): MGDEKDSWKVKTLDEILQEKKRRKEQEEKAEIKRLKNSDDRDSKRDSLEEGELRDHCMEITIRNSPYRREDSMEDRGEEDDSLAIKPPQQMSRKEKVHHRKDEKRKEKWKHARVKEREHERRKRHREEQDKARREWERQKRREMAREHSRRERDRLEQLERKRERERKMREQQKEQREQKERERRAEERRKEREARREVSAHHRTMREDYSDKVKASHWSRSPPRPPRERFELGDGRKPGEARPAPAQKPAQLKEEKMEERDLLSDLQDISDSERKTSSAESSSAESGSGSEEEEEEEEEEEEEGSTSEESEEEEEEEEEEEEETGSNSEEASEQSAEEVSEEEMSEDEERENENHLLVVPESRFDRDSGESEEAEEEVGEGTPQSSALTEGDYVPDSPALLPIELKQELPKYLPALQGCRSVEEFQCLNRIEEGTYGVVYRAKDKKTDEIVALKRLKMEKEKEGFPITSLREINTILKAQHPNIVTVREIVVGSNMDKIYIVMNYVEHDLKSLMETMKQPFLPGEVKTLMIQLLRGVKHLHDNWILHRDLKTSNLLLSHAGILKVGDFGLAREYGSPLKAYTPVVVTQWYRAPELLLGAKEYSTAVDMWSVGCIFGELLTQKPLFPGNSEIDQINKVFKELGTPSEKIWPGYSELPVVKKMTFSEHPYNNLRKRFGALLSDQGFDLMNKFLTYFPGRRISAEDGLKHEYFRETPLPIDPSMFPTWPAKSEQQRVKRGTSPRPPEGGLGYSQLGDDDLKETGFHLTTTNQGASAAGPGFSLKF
Sequence of UniProt P11362 (whole entry, looked up): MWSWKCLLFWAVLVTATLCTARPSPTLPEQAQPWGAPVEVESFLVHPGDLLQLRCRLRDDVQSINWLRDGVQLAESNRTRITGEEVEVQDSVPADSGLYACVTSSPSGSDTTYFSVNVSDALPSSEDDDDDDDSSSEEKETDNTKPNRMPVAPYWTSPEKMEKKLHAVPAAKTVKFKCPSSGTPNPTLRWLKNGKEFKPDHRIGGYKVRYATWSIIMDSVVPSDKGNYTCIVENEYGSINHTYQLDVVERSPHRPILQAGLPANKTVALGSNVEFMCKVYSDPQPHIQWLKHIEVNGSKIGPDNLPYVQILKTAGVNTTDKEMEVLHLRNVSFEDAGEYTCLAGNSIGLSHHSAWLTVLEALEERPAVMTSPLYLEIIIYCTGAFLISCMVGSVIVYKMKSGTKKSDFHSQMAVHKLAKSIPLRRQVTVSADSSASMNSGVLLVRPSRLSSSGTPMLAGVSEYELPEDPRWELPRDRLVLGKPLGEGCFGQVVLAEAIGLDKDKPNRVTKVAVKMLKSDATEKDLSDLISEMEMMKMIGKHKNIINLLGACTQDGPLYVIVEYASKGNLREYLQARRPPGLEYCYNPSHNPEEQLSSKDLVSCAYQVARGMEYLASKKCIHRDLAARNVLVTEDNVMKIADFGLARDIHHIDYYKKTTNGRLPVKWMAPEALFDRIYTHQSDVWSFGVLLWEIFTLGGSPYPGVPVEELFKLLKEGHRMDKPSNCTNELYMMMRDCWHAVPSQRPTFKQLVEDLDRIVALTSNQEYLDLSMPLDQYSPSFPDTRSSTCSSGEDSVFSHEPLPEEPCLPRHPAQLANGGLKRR
Sequence of UniProt Q86UE8 (whole entry, looked up): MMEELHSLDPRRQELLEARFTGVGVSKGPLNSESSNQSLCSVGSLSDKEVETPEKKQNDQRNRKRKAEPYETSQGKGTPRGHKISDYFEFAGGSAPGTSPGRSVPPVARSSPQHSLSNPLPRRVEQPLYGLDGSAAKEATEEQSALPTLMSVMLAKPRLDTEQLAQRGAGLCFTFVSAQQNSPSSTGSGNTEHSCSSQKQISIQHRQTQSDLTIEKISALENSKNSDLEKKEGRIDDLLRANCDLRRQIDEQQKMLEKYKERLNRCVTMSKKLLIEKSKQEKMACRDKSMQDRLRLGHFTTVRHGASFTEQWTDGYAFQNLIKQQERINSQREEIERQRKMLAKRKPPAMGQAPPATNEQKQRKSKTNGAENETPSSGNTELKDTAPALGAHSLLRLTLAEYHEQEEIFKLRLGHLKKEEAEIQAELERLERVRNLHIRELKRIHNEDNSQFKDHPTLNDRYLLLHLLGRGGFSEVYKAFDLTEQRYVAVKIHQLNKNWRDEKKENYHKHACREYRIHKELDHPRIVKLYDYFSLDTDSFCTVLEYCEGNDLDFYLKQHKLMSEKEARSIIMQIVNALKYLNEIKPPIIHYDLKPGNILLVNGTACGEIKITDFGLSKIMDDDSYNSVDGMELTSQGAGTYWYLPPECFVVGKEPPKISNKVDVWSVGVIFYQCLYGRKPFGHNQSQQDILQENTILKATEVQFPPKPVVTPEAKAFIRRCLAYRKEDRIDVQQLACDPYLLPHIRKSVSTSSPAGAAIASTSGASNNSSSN
Sequence of UniProt P42685 (whole entry, looked up): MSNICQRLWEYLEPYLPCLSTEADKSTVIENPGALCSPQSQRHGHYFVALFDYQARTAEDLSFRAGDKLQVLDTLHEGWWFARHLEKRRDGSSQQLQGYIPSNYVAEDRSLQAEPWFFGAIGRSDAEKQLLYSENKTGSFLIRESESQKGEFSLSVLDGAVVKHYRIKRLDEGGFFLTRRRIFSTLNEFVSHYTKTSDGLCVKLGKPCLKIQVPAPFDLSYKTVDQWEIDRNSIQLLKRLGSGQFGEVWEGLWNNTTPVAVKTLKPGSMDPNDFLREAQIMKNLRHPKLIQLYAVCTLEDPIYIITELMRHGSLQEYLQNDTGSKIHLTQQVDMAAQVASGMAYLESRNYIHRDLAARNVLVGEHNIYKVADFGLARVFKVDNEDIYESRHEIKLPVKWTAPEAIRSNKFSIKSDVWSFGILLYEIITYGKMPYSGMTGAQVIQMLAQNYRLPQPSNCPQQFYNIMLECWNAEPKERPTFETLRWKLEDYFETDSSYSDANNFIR
Sequence of UniProt P42684 (whole entry, looked up): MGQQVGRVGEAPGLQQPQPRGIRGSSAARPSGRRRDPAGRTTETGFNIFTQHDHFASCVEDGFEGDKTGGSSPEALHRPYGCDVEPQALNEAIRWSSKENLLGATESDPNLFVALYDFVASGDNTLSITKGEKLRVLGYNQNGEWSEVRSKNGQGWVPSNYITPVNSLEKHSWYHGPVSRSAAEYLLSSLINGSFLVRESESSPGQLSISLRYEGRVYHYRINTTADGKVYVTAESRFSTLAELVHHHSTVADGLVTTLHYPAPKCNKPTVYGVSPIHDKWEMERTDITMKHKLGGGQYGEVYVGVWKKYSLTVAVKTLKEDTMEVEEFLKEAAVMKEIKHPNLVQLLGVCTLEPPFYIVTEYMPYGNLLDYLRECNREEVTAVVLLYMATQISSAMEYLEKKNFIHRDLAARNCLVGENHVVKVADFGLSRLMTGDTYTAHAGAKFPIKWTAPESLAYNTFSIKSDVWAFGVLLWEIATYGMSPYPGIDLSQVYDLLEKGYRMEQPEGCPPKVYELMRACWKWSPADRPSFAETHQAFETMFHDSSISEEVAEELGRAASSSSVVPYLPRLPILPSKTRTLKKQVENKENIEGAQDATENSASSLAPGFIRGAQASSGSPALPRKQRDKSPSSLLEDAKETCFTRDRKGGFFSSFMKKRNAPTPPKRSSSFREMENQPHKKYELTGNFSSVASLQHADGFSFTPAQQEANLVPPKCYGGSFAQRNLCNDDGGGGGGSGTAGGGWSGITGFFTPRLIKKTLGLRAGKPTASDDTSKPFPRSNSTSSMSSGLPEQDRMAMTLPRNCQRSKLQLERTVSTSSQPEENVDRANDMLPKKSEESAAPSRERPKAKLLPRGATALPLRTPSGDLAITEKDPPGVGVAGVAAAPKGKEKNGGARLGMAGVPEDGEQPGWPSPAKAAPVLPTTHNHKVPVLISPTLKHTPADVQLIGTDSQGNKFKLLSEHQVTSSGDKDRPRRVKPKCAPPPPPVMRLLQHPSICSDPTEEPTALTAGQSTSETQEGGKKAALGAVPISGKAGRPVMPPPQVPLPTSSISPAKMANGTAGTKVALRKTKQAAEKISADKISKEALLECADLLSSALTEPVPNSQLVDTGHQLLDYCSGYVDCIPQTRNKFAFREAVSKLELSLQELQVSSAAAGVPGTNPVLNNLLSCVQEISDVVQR
Sequence of UniProt P27361 (whole entry, looked up): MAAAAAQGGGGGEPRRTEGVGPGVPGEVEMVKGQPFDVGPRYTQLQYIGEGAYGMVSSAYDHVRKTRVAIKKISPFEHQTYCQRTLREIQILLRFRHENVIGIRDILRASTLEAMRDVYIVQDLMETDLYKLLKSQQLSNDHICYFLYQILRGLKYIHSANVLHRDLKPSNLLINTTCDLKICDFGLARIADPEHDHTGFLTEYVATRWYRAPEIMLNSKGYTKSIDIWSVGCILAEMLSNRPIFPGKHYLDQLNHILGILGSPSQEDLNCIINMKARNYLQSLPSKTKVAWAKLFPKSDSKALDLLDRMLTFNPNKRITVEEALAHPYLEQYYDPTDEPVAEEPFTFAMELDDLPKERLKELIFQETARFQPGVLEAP

Block 1
Target: Diamine acetyltransferase 1 (Homo sapiens, UniProt P21673)
Action: inhibitor
Concentration: 10 µM
Reference: control
Residues (P21673 1-171): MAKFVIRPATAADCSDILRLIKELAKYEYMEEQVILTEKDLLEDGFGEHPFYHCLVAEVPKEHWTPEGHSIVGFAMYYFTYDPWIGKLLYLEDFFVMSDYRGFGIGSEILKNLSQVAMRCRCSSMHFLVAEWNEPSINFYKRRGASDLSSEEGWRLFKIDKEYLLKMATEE
| Structure (SMILES) | remaining activity |
| --- | --- |
| CCCCCC(C)O (stereo not shown) | 105% |
| CC(C)=CCCc1ccoc1 | 72.6% |
| O=C(/C=C/c1ccc(O)c(O)c1)O[C@@H]1C[C@](O)(C(=O)O)C[C@@H](OC(=O)/C=C/c2ccc(O)c(O)c2)[C@H]1O | 101% |
| CC(C)CC(N)C(=O)O (racemic) | 101% |
| CCCCCCCCCCC/C=C\CCCCC(=O)O | 105% |

Block 2
Structure (SMILES): C[C@H]1CC[C@H](n2c3cnccc3c3cnc(Nc4ccc5c(n4)CCN(C(=O)CO)C5)nc32)CC1
Read-out: cell-free assay
Concentration: 1 µM
| target | remaining signal [%] |
| --- | --- |
| TLK2 (Homo sapiens, UniProt Q86UE8) | 63 |
| MAP3K15 (Homo sapiens, UniProt Q6ZN16) | 100 |
| CDK11A (Homo sapiens, UniProt Q9UQ88) | 100 |
| CSNK1D (Homo sapiens, UniProt P48730) | 20 |

Block 3
SMILES: O=C(NC[C@@H]1[C@H]2CN(C(=O)OCc3cc(C(F)(F)F)cc(C(F)(F)F)c3)C[C@@H]12)c1ccc2[nH]nnc2c1
Read-out: cell-free assay
Method: competition with immobilised ligand
Concentration: 1 µM
| target | remaining binding |
| --- | --- |
| MAPK8 (Homo sapiens, UniProt P45983) | 90% |
| FGFR3 (Homo sapiens, UniProt P22607) | 82% |
| CHEK2 (Homo sapiens, UniProt O96017) | 86% |
| EPHA4 (Homo sapiens, UniProt P54764) | 82% |

Block 4
Structure (SMILES): O=Nc1c(-c2c(O)[nH]c3ccccc23)[nH]c2ccccc12
Read-out: enzyme activity
Action: inhibitor
Concentration: 0.5 µM
Reference: control
| target | remaining activity |
| --- | --- |
| ABL2 (Homo sapiens, UniProt P42684) | 60.3% |
| EPHA3 (Homo sapiens, UniProt P29320) | 92% |
| ACVR1B (Homo sapiens, UniProt P36896) | 102% |
| JAK3 (Homo sapiens, UniProt P52333) | 51.5% |
| MAP2K2 (Homo sapiens, UniProt P36507) | 100% |
| FGFR1 (Homo sapiens, UniProt P11362) | 52.2% |
| MAPKAPK2 (Homo sapiens, UniProt P49137) | 105% |
| CSNK1G3 (Homo sapiens, UniProt Q9Y6M4) | 81.9% |
| MAPK3 (Homo sapiens, UniProt P27361) | 90.4% |
| WEE1 (Homo sapiens, UniProt P30291) | 87.1% |
| NEK6 (Homo sapiens, UniProt Q9HC98) | 92.2% |
| FRK (Homo sapiens, UniProt P42685) | 73.3% |
| RPS6KA2 (Homo sapiens, UniProt Q15349) | 42.6% |
| NEK1 (Homo sapiens, UniProt Q96PY6) | 96.9% |

Block 5
SMILES: N=C(N)NC(=O)c1cnn(-c2cccc3ncccc23)c1C1CC1
Read-out: β-arrestin recruitment
Action: agonist
Method: PRESTO-Tango
Concentration: 10 µM
Reference: untreated
| target | fold over basal |
| --- | --- |
| Adhesion G protein-coupled receptor A3 (ADGRA3, Homo sapiens, UniProt Q8IWK6) | 0.98 |
| SUCNR1 (Homo sapiens, UniProt Q9BXA5) | 1.42 fold |
| G protein-coupled receptor 88 (Homo sapiens, UniProt Q9GZN0) | 1.27 |
| Probable G-protein coupled receptor 21 (GPR21, Homo sapiens, UniProt Q99679) | 0.76 |

Repeated from above (block 4):
| target | remaining activity |
| --- | --- |
| MAPK3 (Homo sapiens, UniProt P27361) | 90.4% |
| ACVR1B (Homo sapiens, UniProt P36896) | 102% |
| NEK1 (Homo sapiens, UniProt Q96PY6) | 96.9% |
| EPHA3 (Homo sapiens, UniProt P29320) | 92% |
| FRK (Homo sapiens, UniProt P42685) | 73.3% |
